Measured values gathered from unrelated publications.
Protocols differ between the studies behind these lines. Values joined by “and” are separate records of one study, mostly repeats; a detail may differ. ± marks the error that the study gave.

Nc1nc2c(ncn2COCCO)c(=O)[nH]1
IC50 (human alphaherpesvirus 1): 0.27 µM

CCC(=O)Nc1cc(Nc2cc(NC3CC3)n3ncc(C#N)c3n2)ccc1N(C)CCN1CCCCC1
IC50 (murine hepatitis virus; viral replication, nanoluciferase reporter; DBT; 10 h): 2 µM

CNC(C)Cc1ccc2c(c1)OCO2 (racemic)
mood rating (visual analog scale, measured: Dizzy; human; oral, 0.75 mg/kg, mean over session, unit not given; baseline: pre-dose baseline): 6.4

CC(=O)Nc1ccc2ccn(-c3cc(NC4CC(F)(F)C4)n4ncc(C#N)c4n3)c2c1
IC50 (murine hepatitis virus; viral replication, nanoluciferase reporter; DBT; 10 h): 1 µM

C/C(=C\Cc1c(O)c(Cl)c(C)c(C=O)c1O)CC/C=C(\C)[C@@H]1CC(=O)C(C)(C)O1
IC50 (Wickerhamomyces anomalus; O2 uptake, inhibitor; mitochondria; added: duroquinol 1 mM): 52 µM

CC(=O)Nc1ccc2ccn(-c3cc(N[C@H](C)C#N)n4ncc(C#N)c4n3)c2c1
IC50 (murine hepatitis virus; viral replication, nanoluciferase reporter; DBT; 10 h): 3.16 µM

[N-]=[N+]=[N-]
IC50 (Plasmodium yoelii; oxygen consumption; 17XL): 810 µM

CC(C)c1cc2c(cc1O)[C@@]1(C)CCCC(C)(C)[C@@H]1[C@@H](O)C2=O
IC50 (Leishmania amazonensis; parasite growth; mouse Peritoneal macrophage; 72 h, intracellular, amastigote): 5.4 mg/L

C[C@@H]1N[C@H](CCCCCCCCCCC2=C[C@@H](CCCCCCCCCC[C@@H]3CC[C@@H](O)[C@H](C)N3)[C@@H]3CCCN3C2)CC[C@H]1O
IC50 (Leishmania donovani; parasite growth, resazurin; 72 h, amastigote): 1 mg/L

O=Cc1cn(Cc2ccccc2)c2ccc([N+](=O)[O-])cc12
IC50 (Leishmania major; parasite growth, resazurin; promastigote): > 100 µM

O=C(O)C(=O)CBr
IC50 (Leishmania infantum; intracellular amastigotes; U-937 macrophages; 48 h): 24.9 ± 2.3e-05 µM

CCC(=O)Nc1cc(Nc2cc(NC3CC3)n3ncc(C#N)c3n2)ccc1N1CCCC(N)C1 (centres unmarked)
IC50 (murine hepatitis virus; viral replication, nanoluciferase reporter; DBT; 10 h): 0.316 µM

C/C=C1\CN2CCC34CC5C6CC7c8c(c9ccccc9n8C)CC(C6COC5(C)OC35C2CC1C(C(=O)OC)N5c1ccccc14)N7C (centres unmarked)
IC50 (Leishmania mexicana; parasite growth, flow cytometry; promastigote): > 200 µM

O=Cc1cn(Cc2ccc(F)cc2)c2ccc([N+](=O)[O-])cc12
IC50 (Trypanosoma congolense; trypomastigotes, IL3000): > 84 µM

O=C1C=C2C=C[C@@H]3C[C@@]2(O1)[C@H]1CCCCN31
IC50 (human papillomavirus 16; pseudovirus infection, inhibitor; 293FT; pseudovirus): 9 µM

N=C(N)c1ccc(-c2ccc(-c3cccs3)o2)cc1F
inhibition (Salmonella enterica; sodium azide mutagenicity; TA1535; 10 µM, 48 h, added: sodium azide 2 µg/plate co-exposure): 87%

[123I]c1cncc(OC[C@@H]2CCN2)c1
tissue/plasma ratio (SPECT; human, brain cortex; intravenous bolus, 8.6 mCi; baseline: plasma): 18.3

O=Cc1cn(Cc2cccc(Cl)c2)c2ccc([N+](=O)[O-])cc12
IC50 (Trypanosoma brucei rhodesiense; trypomastigotes, IL1501): > 79 µM

CO/C(=C/C(N)=O)[C@H](C)[C@H](/C=C/c1csc(-c2csc([C@@H](C)/C=C/C=C/C(C)C)n2)n1)OC
IC50 (Wickerhamomyces anomalus; O2 uptake, inhibitor; mitochondria; added: duroquinol 1 mM): 0.047 µM

Cn1c2c(c(=O)c3ccccc31)CC(O)C(C)(C)O2 (centres unmarked)
IC50 (human rhinovirus 2; cytopathic effect; HeLa; 72 h): 83 ± 43.3 µM

CN[C@@](C)(C[18F])C(=O)O
tracer uptake (MDA-MB-468 tumour model; host not given, bone; 1 h, tumour-bearing): 1.5 %ID/g

CCCC[C@H]1C(=O)O[C@H](C)[C@H](NC(=O)c2cccc(NC=O)c2O)C(=O)O[C@@H](C)[C@@H]1OC(=O)CC(C)C
IC50 (Wickerhamomyces anomalus; O2 uptake, inhibitor; mitochondria; added: malate and pyruvate 15 mM): 0.035 µM

C[C@H](Cn1cnc2c(N)ncnc21)OCP(=O)(O)O
inhibition (human alphaherpesvirus 2; virus production, plaque reduction; human monocytes/macrophages; 0.04 µg/mL, 6 days): 6%

CN1CCN2CCN(CC1)CCN(Cc1ccccc1)CC2
IC50 (Leishmania donovani; parasite growth, resazurin; 72 h, promastigote): > 20 µM

CSCC[C@H](NC(=O)[C@H](Cc1ccccc1)NC(=O)[C@H](Cc1c[nH]c2ccccc12)NC(=O)[C@H](CCC(=O)O)NC(=O)[C@H](CCCNC(=N)N)NC(=O)[C@H](Cc1c[nH]cn1)NC(=O)[C@@H](NC(=O)[C@H](CC(C)C)NC(=O)[C@H](Cc1ccccc1)NC(=O)[C@@H](N)[C@@H](C)O)C(C)C)C(=O)N[C@@H](CC(=O)O)C(=O)N[C@@H](CC(C)C)C(=O)N[C@@H](CC(N)=O)C(=O)N[C@@H](CC(C)C)C(=O)N1CCC[C@H]1C(=O)N[C@@H](Cc1c[nH]c2ccccc12)C(=O)N[C@@H](CO)C(=O)N[C@@H](CO)C(=O)N[C@@H](C)C(=O)O
IC50 (West Nile virus; viral replication, plaque reduction; LLC-MK2, Egypt 101): ~10 µM

N#Cc1ccc(-c2ccc(-c3cccs3)s2)cc1F
inhibition (Salmonella enterica; sodium azide mutagenicity; TA1535; 20 µM, 48 h, added: sodium azide 2 µg/plate co-exposure): 104 ± 23.3%

CC(C)c1ccc2c(c1)CC[C@H]1[C@](C)(CN)CCC[C@]21C
IC50 (HFK normal keratinocytes; cell viability, MTS; 72 h): 8.4 ± 0.7 µM

CC1=CC=CC[C@H](C)NC(=O)C=CC=CC=C[C@H](C)[C@@H](O)[C@H](O)[C@@H](O)C[C@@H](O)/C=C\C=CC(C)=C1
IC50 (Trypanosoma brucei brucei; parasite growth): < 10 µM

COc1cc2cc(Oc3ccc4ccc(=O)oc4c3)c(=O)oc2cc1OC
IC50 (human rhinovirus 2; cytopathic effect; HeLa; 72 h): 97.1 ± 33.9 µM

CS(=O)(=O)c1ccc(CSc2ncnc3c2ncn3C2CC(CO)C(O)C2O)cc1 (centres unmarked)
IC50 (Toxoplasma gondii; parasite growth, radiolabelled uracil incorporation; RH wild type, tissue culture): 14.6 ± 1.1 µM

CC(C)C[C@H](NC(=O)[C@H](CCc1ccccc1)NC(=O)CN1CCOCC1)C(=O)N[C@@H](Cc1ccccc1)C(=O)N[C@@H](CC(C)C)C(=O)[C@@]1(C)CO1
IC50 (Babesia divergens; parasite growth; bovine erythrocyte culture; 48 h, starting parasitemia 2%): 0.029 ± 0.01 µM

Cc1ccc(Cn2cc(C=O)c3cc([N+](=O)[O-])ccc32)cc1
IC50 (Leishmania major; parasite growth, resazurin; THP-1; 24 h, intracellular, amastigote): > 10 µM

N#CSCCOc1cccc(Oc2ccccc2Cl)c1
IC50 (Toxoplasma gondii; growth; tachyzoites): 2.1 µM

CC[C@H](C)[C@H](NC(=O)[C@H](Cc1ccccc1)NC(=O)[C@H](CC(=O)O)NC(=O)[C@H](CCCCN)NC(=O)[C@H](C)NC(=O)[C@H](CCCCN)NC(=O)[C@H](CC(N)=O)NC(=O)[C@H](CC(C)C)NC(=O)[C@H](Cc1c[nH]c2ccccc12)NC(=O)[C@H](CCC(=O)O)NC(=O)[C@H](CCCCN)NC(=O)[C@@H](NC(=O)CNC(=O)[C@H](C)N)[C@@H](C)O)C(=O)N[C@@H](CCCCN)C(=O)N[C@@H](CCC(=O)O)C(=O)N[C@@H](CCCCN)C(=O)NCC(=O)N[C@@H](CC(C)C)C(=O)NCC(=O)N[C@@H](CCSC)C(=O)N[C@@H](CC(C)C)C(=O)N[C@@H](CO)C(=O)N[C@@H](C)C(=O)N[C@@H](C)C(=O)N[C@@H](C)C(=O)N[C@@H](CC(N)=O)C(=O)N[C@@H](C)C(=O)N[C@@H](C)C(=O)N[C@@H](CC(C)C)C(=O)N[C@@H](CC(N)=O)C(=O)O
IC50 (Haemonchus contortus; larval development; Kirby isolate; 6 days, 26 °C): 23 to 38 µM and 37.8 µM

Cc1ccccc1CSc1ncnc2c1ncn2C1CC(CO)C(O)C1O (centres unmarked)
IC50 (Toxoplasma gondii; parasite growth, radiolabelled uracil incorporation; RH wild type, tissue culture): 19.7 ± 2.8 µM

Excerpt of the above:
O=Cc1cn(Cc2ccccc2)c2ccc([N+](=O)[O-])cc12
IC50 (Leishmania major; parasite growth, resazurin; promastigote): > 100 µM

O=C(O)C(=O)CBr
IC50 (Leishmania infantum; intracellular amastigotes; U-937 macrophages; 48 h): 24.9 ± 2.3e-05 µM

CCC(=O)Nc1cc(Nc2cc(NC3CC3)n3ncc(C#N)c3n2)ccc1N1CCCC(N)C1 (centres unmarked)
IC50 (murine hepatitis virus; viral replication, nanoluciferase reporter; DBT; 10 h): 0.316 µM
